{"data": "Measured values of several laboratories", "note": "Each numbered part is a random draw from the data of one study; scales do not carry over between parts."}
{"data": "Set 1", "target": "Histone acetyltransferase KAT6A, winged helix 1, GST fusion (KAT6A, Homo sapiens, UniProt Q92794, residues 1-85)", "method": "protein binding microarray", "molecule type": "double-stranded DNA, one strand shown", "matrix": "in vitro", "tested at": "not given", "setting": "8-mer, flanks averaged, mean of 2 arrays, mostly near background", "relative to": "not given", "direction": "higher = stronger binding", "Construct (chain)": "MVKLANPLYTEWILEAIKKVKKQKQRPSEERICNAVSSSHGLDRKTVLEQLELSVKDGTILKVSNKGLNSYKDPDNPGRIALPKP"}
{"Sequence": "CAAACACA", "E-score": -0.231}
{"Sequence": "CTGCAGTC", "E-score": -0.152}
{"Sequence": "AGGCAGAA", "E-score": -0.111}
{"Sequence": "CCCACGAG", "E-score": -0.219}
{"Sequence": "CCAAACTA", "E-score": -0.124}
{"Sequence": "CAACGACC", "E-score": -0.0535}
{"Sequence": "ACCCCCCG", "E-score": 0.31}
{"data": "Set 2", "target": "Interferon regulatory factor 5, full length, phosphomimetic (IRF5, Homo sapiens, UniProt Q13568-2, residues 1-514, S451D/S453D/S456D/S462D)", "method": "protein-binding microarray", "molecule type": "double-stranded DNA, one strand shown", "matrix": "in vitro", "tested at": "940 nM top", "setting": "60-bp whole probe", "added": "salmon DNA 0.4 mg/ml", "relative to": "random background probes", "direction": "higher = stronger binding", "all sequences stand within": "GCCTAGCAC … GTCTTGATTCGCTTGACGCTGCTG"}
{"Sequence": "CTGTTTTTCCCCTGCACTCAGTGCTAG", "fitted relative affinity [z-score]": 1.39}
{"Sequence": "TTAGAACTGAGTTTAGATTAGTGCTAG", "fitted relative affinity [z-score]": -0.333}
{"Sequence": "GACGATTTCACTTCCGAGACGTGCTAG", "fitted relative affinity [z-score]": 1.32}
{"Sequence": "TTAGGTTTCGGGCTTCGGTTAGTGCTA", "fitted relative affinity [z-score]": 8.13}
{"Sequence": "GGCTGTTTGGTTCTTATCCTGTGCTAG", "fitted relative affinity [z-score]": 0.552}
{"Sequence": "TCTTTTTATGCTTTCTTTAAGTGCTAG", "fitted relative affinity [z-score]": 2.7}
{"Sequence": "TCAGCTTCTTTTTTATTACTGTGCTAG", "fitted relative affinity [z-score]": 1.4}
{"Sequence": "AATTAATAACTCGTAGGATCGTGCTAG", "fitted relative affinity [z-score]": -0.0909}
{"data": "Set 3", "target": "Sal-like protein 4, full length isoform A (SALL4, Homo sapiens, UniProt Q9UJQ4, residues 1-1053)", "method": "universal PBM", "molecule type": "double-stranded DNA, one strand shown", "matrix": "in vitro", "tested at": "600 nM", "setting": "8-mer, flanks averaged, mean of replicates", "direction": "higher = stronger binding", "sequence of UniProt Q9UJQ4 (whole entry, looked up)": "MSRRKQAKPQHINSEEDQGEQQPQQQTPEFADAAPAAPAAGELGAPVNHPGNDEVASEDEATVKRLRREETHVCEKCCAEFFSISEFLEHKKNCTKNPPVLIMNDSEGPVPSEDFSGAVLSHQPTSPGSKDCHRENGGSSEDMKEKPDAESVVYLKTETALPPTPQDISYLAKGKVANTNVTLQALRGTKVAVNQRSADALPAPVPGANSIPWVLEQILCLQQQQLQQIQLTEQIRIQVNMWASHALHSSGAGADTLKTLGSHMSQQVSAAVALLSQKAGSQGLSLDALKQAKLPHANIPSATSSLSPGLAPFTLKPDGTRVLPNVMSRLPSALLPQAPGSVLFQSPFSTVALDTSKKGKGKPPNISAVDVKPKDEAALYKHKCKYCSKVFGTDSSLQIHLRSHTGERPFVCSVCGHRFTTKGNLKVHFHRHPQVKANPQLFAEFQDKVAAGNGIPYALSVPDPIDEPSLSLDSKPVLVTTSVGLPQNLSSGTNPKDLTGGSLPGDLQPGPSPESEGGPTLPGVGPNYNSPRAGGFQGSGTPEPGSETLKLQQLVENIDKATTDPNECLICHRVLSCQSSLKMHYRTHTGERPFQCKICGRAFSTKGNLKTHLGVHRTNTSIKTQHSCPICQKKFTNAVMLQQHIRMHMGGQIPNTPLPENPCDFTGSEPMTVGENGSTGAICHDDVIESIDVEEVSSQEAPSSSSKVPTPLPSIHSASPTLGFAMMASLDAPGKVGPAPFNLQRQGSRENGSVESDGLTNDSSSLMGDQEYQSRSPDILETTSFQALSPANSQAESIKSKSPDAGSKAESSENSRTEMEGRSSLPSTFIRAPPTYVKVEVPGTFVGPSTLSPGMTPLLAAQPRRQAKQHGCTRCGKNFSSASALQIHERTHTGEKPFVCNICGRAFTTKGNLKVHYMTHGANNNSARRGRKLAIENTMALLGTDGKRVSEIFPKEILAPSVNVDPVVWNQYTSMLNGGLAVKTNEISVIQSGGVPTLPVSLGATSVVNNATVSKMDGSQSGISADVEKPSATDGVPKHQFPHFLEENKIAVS"}
{"Sequence": "ACCGCCTA", "E-score": -0.141}
{"Sequence": "ACAATCCC", "E-score": 0.0438}
{"Sequence": "CTGCCTGC", "E-score": -0.225}
{"Sequence": "AAGCTACA", "E-score": 0.0262}
{"Sequence": "ATACTAGG", "E-score": 0.147}
{"Sequence": "GTAAATGA", "E-score": 0.201}
{"Sequence": "GCAAATCA", "E-score": 0.14}
{"Sequence": "ACCAGCTG", "E-score": -0.283}
{"Sequence": "ACTACCCT", "E-score": -0.022}
{"Sequence": "ATCCCAGC", "E-score": -0.195}
{"Sequence": "AGGCGTAC", "E-score": -0.153}
{"data": "Single results of other studies"}
{"Substance": "PhoQ, residues 284 288 289 292 302 303 TNASYF", "target": "PhoP, residues 12 14 15 18 19 VQALL (Escherichia coli, UniProt P23836)", "test": "Sort-seq, item: YFP reporter", "test system": "E. coli", "conditions": "PhoQ-PhoP variant library, added: 10 µM Mg2+", "scale": "relative to: high Mg2+ state, higher = stronger signaling", "measurement": "fold induction", "result": 15.1}
